Results collected from several papers.
Lines come from different studies, so protocols differ. ± gives the spread as reported.

| SMILES | test | test system | conditions | how to read | measurement | result |
| --- | --- | --- | --- | --- | --- | --- |
| CC(C)C(=O)OC[C@H]1O[C@@H](n2ccc(NO)nc2=O)[C@H](O)[C@@H]1O | – | rat brain dialysate | 5 ng/mL, time not given, three freeze-thaw cycles, added: NHC 25 ng/mL | – | remaining compound | 99.8 ± 1.63% |
| CCCCCOc1ccc(-c2cc(-c3ccc(C(=O)N[C@H]4C[C@@H](O)[C@@H](O)NC(=O)[C@@H]5[C@@H](O)[C@@H](C)CN5C(=O)[C@H]([C@H](O)CC(N)=O)NC(=O)[C@H]([C@H](O)[C@@H](O)c5ccc(O)c(OS(=O)(=O)O)c5)NC(=O)[C@@H]5C[C@@H](O)CN5C(=O)[C@H]([C@@H](C)O)NC4=O)cc3)no2)cc1 | – | human children aged 6-11 years, plasma | intravenous, 3 mg/kg once daily, day 7, mean | – | Tmax | 1.1 h |
| CN[C@@](C)(C[18F])C(=O)O | – | SCID mouse SK-OV-3 xenograft, bone | 15 min, post injection | – | tissue uptake | 3.2 ± 0.7 %ID/g |
| [123I]c1cncc(OC[C@@H]2CCN2)c1 | SPECT | human, low plasma nicotine, Putamen | intravenous | baseline: plasma | tissue/plasma ratio | 23.8 |
| CC(=O)N[C@H](CCCCN)C(=O)N[C@H](CC(C)C)C(=O)N[C@@H](CN)C(=O)N[C@H](CO)C(=O)N[C@H](CC(C)C)C(=O)N[C@H](CC(C)C)C(=O)N[C@@H](CN)C(=O)N[C@@H](C(=O)N[C@H](CC(C)C)C(=O)N[C@H](CO)C(=O)N[C@@H](CN)C(=O)N[C@H](C)C(=O)N[C@H](C)C(=O)N[C@H](C)C(=O)N[C@H](C)C(=O)N[C@H](C)C(=O)N[C@H](CC(C)C)C(=O)N[C@@H](CN)C(=O)N[C@@H](C(=O)N[C@H](CC(C)C)C(=O)N[C@H](CC(C)C)C(=O)N[C@@H](CN)C(=O)N[C@H](C)C(=O)N[C@H](CC(C)C)C(=O)N[C@H](CO)C(=O)N[C@@H](CN)C(N)=O)[C@H](C)O)[C@H](C)O | RP-HPLC temperature profiling | – | pH 2 | baseline: random coil control | self-association parameter | 18 min |
| CC[C@H](C)[C@H](NC(=O)[C@H](CO)NC(=O)[C@H](C)NC(=O)[C@@H](NC(=O)CNC(=O)[C@H](CO)NC(=O)[C@@H](NC(=O)[C@@H](NC(=O)[C@H](Cc1c[nH]cn1)NC(=O)[C@@H]1CCCN1C(=O)[C@@H](NC(=O)[C@H](CC(C)C)NC(=O)[C@H](CO)NC(=O)[C@H](CC(C)C)NC(=O)[C@@H](N)Cc1ccccc1)[C@@H](C)CC)[C@@H](C)CC)C(C)C)C(C)C)C(=O)N[C@@H](C)C(=O)N[C@@H](CCCCN)C(=O)N[C@@H](Cc1c[nH]cn1)C(=O)N[C@@H](Cc1ccccc1)C(N)=O | UPLC-MS/MS | processed rat plasma in autosampler | 0.05 µg/mL, 8 h, 25 °C, post-preparative stability | – | concentration found | 0.049 µg/mL |
| CC(=O)N[C@@H](Cc1c[nH]c2ccccc12)C(=O)N[C@H](C(=O)N[C@@H](Cc1ccccc1)C(=O)N[C@@H](CC(N)=O)C(=O)N1CCC[C@H]1C(=O)N[C@@H](C)C(=O)N[C@H](C(=O)NCC(=O)N[C@@H](CCCCN)C(=O)N[C@@H](Cc1ccccc1)C(=O)N[C@@H](CCCCN)C(=O)N[C@@H](Cc1c[nH]c2ccccc12)C(=O)N[C@H](C(=O)NCC(N)=O)[C@@H](C)O)[C@@H](C)O)[C@@H](C)O | circular dichroism | phosphate buffer | pH 6.5 | – | Tm | 30.3 ± 0.1 °C |
| CCNc1nc(Cl)nc(NC(C)C)n1 | LC-MS/MS | herbicide solution | 2 h, 40 °C, added: 365 nm UV exposure | – | remaining amount | 34.9 ± 13.5% |
| COc1ccc(C[C@@H]2NC(=O)[C@H]([C@@H](C)O)NC(=O)[C@@H]3[C@@H]4CCN3C(=O)[C@@H]3Cc5cn(c6ccc(F)cc56)CCCCCCN(Cc5ccc(cc5)CCNC(=O)[C@]5(C)CCCN5C2=O)C(=O)CCC(=O)N[C@@H](C)C(=O)N[C@H](CNC(=O)CCCCC[N+](C)(C)C)C(=O)N[C@@H](Cc2cccc(c2)CNC(=O)CO4)C(=O)N3)cc1 | – | fasted healthy humans, plasma | oral, 300 mg single dose, with 1800 mg Labrasol, geometric mean | – | CL/F | 1410 mL/min |
| O=c1[nH]c(Cc2ccccn2)nc2c1cnn2C1CCOCC1 | – | healthy men, extensive metabolizers, plasma | oral, 10 mg single dose, tablet, geometric mean | – | AUC(0-inf) | 0.0959 µM·h |
| C[C@H](Cn1cnc2c(N)ncnc21)OCP(=O)(O)O | two-compartment model | Macaca nemestrina, male | subcutaneous, 10.6 mg/kg | – | elimination half-life (t1/2,beta) | 596 min |
| O=C(NCCS)c1cccc(C(=O)NCCS)c1 | – | male Sprague-Dawley rat, plasma | intravenous, 1 mg/kg, 6 h | – | concentration | 33.7 ng/mL |

Repeated from above:
| SMILES | test | test system | conditions | how to read | measurement | result |
| --- | --- | --- | --- | --- | --- | --- |
| C[C@H](Cn1cnc2c(N)ncnc21)OCP(=O)(O)O | two-compartment model | Macaca nemestrina, male | subcutaneous, 10.6 mg/kg | – | elimination half-life (t1/2,beta) | 596 min |
